Values quoted from earlier work as cited in several papers.
Numbered parts are unrelated; values within a part may stem from several laboratories. Numbers after ± are the reported error.

Sample 1
Organism: SARS-CoV-2
Observed: viral cytopathic effect
Cell line: Vero E6
Tested at: 20 µM
Compound	inhibition [%]
O=C(Nc1ccc2c(O)cc(S(=O)(=O)[O-])cc2c1)Nc1ccc2c(O)cc(S(=O)(=O)[O-])cc2c1.[Na+].[Na+]	-0.04
Cc1cc(N)c2ccccc2[n+]1CCCCCCCCCC[n+]1c(C)cc(N)c2ccccc21	-0.08
Cc1ccc(C(=O)Nc2ccc(S(=O)(=O)O)c3cc(S(=O)(=O)O)cc(S(=O)(=O)O)c23)cc1NC(=O)c1cccc(NC(=O)Nc2cccc(C(=O)Nc3cc(C(=O)Nc4ccc(S(=O)(=O)O)c5cc(S(=O)(=O)O)cc(S(=O)(=O)O)c45)ccc3C)c2)c1	-0.02
O=C(N/N=C/c1ccc(O)c(O)c1)c1cc2ccccc2cc1O	0.09
OCCOCCN1CCN(C(c2ccccc2)c2ccc(Cl)cc2)CC1 (centres unmarked)	-0.13
O=C1OC2(c3cc(I)c(O)c(I)c3Oc3c2cc(I)c(O)c3I)c2c(Cl)c(Cl)c(Cl)c(Cl)c21	2.67
CO[C@H](C(=O)[C@@H](O)[C@@H](C)O)[C@@H]1Cc2cc3cc(O[C@H]4C[C@@H](O[C@H]5C[C@@H](O)[C@H](O)[C@@H](C)O5)[C@H](O)[C@@H](C)O4)c(C)c(O)c3c(O)c2C(=O)[C@H]1O[C@H]1C[C@@H](O[C@H]2C[C@@H](O[C@H]3C[C@](C)(O)[C@H](O)[C@@H](C)O3)[C@@H](O)[C@@H](C)O2)[C@H](O)[C@@H](C)O1	1.22

Other studies, line by line
Structure (SMILES)	tested on	test	system	conditions	measurement	value
CCN(CC)CCCC(C)Nc1ccnc2cc(Cl)ccc12 (centres unmarked)	Ebola virus	viral replication	Vero E6, eGFP reporter		EC50	16000 nM
CCn1ccc(-c2cc(-c3cnn(C)c3)cc([C@@H](C)NC(=O)c3cc(OCCN(C)C)ccc3C)c2)n1	SARS-CoV-2	viral replication			EC50	440 nM
CCCCCCCCCCCCCCCCCC[S+](CCC)c1ccccc1C(=O)OCC (centres unmarked)	SARS-CoV-2	cytopathic effect	Caco-2		IC50	770 ± 110 nM
COc1c(O)cc(CCN)c2c1SSSSS2	L1210	cell growth		previously reported	IC50	3100 nM
Nc1nc(=S)c2ncn([C@@H]3O[C@H](CO)[C@@H](O)[C@H]3O)c2[nH]1	SARS-CoV-2	cytopathic effect	Caco-2		IC50	780 ± 140 nM
CC(CN1c2ccccc2Sc2ccccc21)N(C)C (centres unmarked)	Ebola virus	pseudovirus entry, HIV pseudotype reporter	A549		IC50	19400 nM
Cc1ccc(N2CCN(C)CC2)cc1C(=O)NC1(c2cc(-c3cnn(C)c3)nc3ccccc23)CC1	Replicase polyprotein 1a, papain-like protease (Severe acute respiratory syndrome coronavirus 2, UniProt P0DTC1)				Ki	2 nM

A few entries again (sample 1):
Compound	inhibition [%]
Cc1cc(N)c2ccccc2[n+]1CCCCCCCCCC[n+]1c(C)cc(N)c2ccccc21	-0.08
Cc1ccc(C(=O)Nc2ccc(S(=O)(=O)O)c3cc(S(=O)(=O)O)cc(S(=O)(=O)O)c23)cc1NC(=O)c1cccc(NC(=O)Nc2cccc(C(=O)Nc3cc(C(=O)Nc4ccc(S(=O)(=O)O)c5cc(S(=O)(=O)O)cc(S(=O)(=O)O)c45)ccc3C)c2)c1	-0.02
